# Measured values pooled from the literature.
# Numbered parts are unrelated; each lists some results of a single study. Changes are numbered by the printed parent chain.

# Block 1 — target: CCNE2, cyclin fold, Cln2 fusion (human); method: yeast growth competition, sequencing; medium: yeast; setting: weak parent motif; relative to: not given; direction: higher = stronger binding
# Parent: CDC42EP1 docking peptide (human); SLVVGKLSFDSSP
Change,normalised enrichment score
SAVVGKLSFDSSP [L2A],0.142
SLVAGKLSFDSSP [V4A],0.18
SLVVAKLSFDSSP [G5A],-0.0785

# Block 2 — target: CRIPT, C-terminal peptide; method: DHFR complementation, deep sequencing; medium: yeast; relative to: wild type; direction: higher = weaker binding
# Setting: single substitutions, model-inferred values
# Parent: ERBIN, PDZ domain 1 (human); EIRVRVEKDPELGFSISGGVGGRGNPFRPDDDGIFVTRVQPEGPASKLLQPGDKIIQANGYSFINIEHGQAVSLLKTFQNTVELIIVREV; partner TKNYKQTSV
Change,binding free energy change
L48R,0.104 kcal/mol
Q70G,-0.119 kcal/mol
L12W,1.21 kcal/mol
I34W,0.53 kcal/mol
R5F,0.0594 kcal/mol

# Block 3 — method: protein-binding microarray; molecule type: double-stranded DNA, one strand shown; medium: in vitro; tested at: not given; direction: higher = stronger binding
# Target: Protein C-ets-1 (ETS1, Homo sapiens, UniProt P14921, residues 1-441, full length assumed)
# Setting: k-mer, scored over probes, only values ≥0.25
# Residues (chain): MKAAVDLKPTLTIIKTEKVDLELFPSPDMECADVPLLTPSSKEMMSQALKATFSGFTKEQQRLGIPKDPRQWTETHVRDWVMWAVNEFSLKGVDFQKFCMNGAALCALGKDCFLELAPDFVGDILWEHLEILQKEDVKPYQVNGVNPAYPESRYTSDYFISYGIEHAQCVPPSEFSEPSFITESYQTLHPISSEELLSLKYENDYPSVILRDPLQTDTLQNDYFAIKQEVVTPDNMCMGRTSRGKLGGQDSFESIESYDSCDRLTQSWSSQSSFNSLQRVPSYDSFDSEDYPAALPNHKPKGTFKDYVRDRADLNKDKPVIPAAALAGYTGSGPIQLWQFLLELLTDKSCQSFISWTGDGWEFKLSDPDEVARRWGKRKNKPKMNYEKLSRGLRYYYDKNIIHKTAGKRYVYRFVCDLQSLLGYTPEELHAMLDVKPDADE
Sequence,E-score
CCGCCCCC,0.303
ATCCGGTG,0.481
ATATCCTC,0.338
AGAGTTCC,0.303
TCCGGCGA,0.417
GGGATGCA,0.25
ATGCGGAA,0.434
CATGTCCG,0.397

# Further values, each from its own experiment
Molecule,target,test,system,conditions,scale,endpoint,result
"PhoQ, residues 284 288 289 292 302 303 SSTLSG","PhoP, residues 12 14 15 18 19 SQCLL (Escherichia coli, UniProt P23836)","Sort-seq, item: YFP reporter",E. coli,"PhoQ-PhoP variant library, with: 10 µM Mg2+","relative to: high Mg2+ state, higher = stronger signaling",fold induction,14.7

# Some of these lines once more (block 3):
Sequence,E-score
CCGCCCCC,0.303
